Assay results pooled from the literature.
Parts stem from different laboratories: compare values within a part only. Positions count from the first letter of the parent shown.

Set 1 — method: universal PBM; molecule type: double-stranded DNA, one strand shown; matrix: in vitro; concentration: 600 nM; reading: higher = stronger binding
Target: Sal-like protein 4, full length isoform A (SALL4, Homo sapiens, UniProt Q9UJQ4, residues 1-1053)
Sequence of UniProt Q9UJQ4 (whole entry, looked up): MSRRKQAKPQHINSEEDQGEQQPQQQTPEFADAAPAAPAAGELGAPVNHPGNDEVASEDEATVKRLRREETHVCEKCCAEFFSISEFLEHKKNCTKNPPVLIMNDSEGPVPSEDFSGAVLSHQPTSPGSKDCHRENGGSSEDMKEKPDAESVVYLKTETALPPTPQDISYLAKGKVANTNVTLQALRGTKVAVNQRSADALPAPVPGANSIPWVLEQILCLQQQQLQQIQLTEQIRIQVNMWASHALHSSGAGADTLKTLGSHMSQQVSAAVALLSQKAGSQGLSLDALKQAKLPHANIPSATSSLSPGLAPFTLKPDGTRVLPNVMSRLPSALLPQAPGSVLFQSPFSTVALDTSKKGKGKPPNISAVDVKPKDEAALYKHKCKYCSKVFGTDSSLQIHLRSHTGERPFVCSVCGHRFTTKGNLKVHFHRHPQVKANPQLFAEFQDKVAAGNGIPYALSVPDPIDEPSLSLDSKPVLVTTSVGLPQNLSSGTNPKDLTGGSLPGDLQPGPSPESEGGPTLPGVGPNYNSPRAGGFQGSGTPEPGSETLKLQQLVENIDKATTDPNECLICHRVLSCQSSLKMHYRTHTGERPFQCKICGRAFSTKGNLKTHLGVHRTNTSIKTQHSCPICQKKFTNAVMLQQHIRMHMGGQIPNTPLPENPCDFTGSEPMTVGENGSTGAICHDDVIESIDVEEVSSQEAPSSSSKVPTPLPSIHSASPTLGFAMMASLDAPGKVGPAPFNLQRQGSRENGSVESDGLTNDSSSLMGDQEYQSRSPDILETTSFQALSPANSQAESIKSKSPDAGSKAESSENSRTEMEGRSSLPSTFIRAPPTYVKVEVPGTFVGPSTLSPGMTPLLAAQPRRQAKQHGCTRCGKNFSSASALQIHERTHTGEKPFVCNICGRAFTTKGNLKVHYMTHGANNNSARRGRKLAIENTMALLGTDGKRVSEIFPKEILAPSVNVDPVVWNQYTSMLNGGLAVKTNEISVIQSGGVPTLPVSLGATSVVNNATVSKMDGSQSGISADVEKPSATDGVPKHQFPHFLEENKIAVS
Setting: 8-mer, flanks averaged, mean of replicates
Sequence	E-score
GCCATTAA	0.141
CTATGAAA	0.227
TTAATGAA	0.364
CCTACACC	0.004
GGCCACAC	-0.169
CTTCATCA	0.133
CCTAACCA	0.021
CCGTCGAA	-0.11
GCGTTGCA	-0.217
GGAATGCC	-0.177
ACGTTATG	0.333
AAGGGGTC	-0.174
TCCGGAGA	-0.179
CCTAATCG	-0.0114
ACCACTGG	-0.0737
ACTGAAGG	-0.0905

Set 2 — method: competition protein-binding microarray; molecule type: double-stranded DNA, one strand shown; matrix: in vitro; concentration: 2 µM; with: Pho4 competitor, 0.05 µM; reading: higher = stronger binding
Target: Centromere-binding protein 1, full length, His-tagged (CBF1, Saccharomyces cerevisiae, UniProt P17106, residues 1-351)
Sequence of UniProt P17106 (whole entry, looked up): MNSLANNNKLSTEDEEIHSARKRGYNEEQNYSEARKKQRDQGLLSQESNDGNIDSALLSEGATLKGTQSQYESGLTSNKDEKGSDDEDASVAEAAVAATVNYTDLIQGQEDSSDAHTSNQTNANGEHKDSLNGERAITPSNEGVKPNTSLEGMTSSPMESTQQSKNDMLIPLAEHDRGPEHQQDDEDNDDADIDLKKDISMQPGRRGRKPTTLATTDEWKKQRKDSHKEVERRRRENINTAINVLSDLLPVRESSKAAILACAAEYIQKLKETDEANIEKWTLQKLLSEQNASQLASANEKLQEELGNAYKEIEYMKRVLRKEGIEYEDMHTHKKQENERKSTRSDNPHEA
Setting: whole 60-bp probe, lowest competitor level
Sequence	fluorescence intensity
TCATCGTCAGAACATCTCGTGACTCGAGCACTCGTCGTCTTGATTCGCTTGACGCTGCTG	804 a.u.
CATACCCAACCTTGTTCAGTGGGTGAAGATATTTGTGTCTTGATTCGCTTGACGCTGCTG	75.8 a.u.
GAAGGTGCCTCTTCCCACATGGCCGAGCCCTCGCCGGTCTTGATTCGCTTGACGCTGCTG	54.8 a.u.
AAAGAGGGTCCATTCGGCGTGCTTTTGGTACTGTGAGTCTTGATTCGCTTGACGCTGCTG	60.9 a.u.
TGGCCAAGGTTGTTTTCCGTGACTCGTACAAGTACAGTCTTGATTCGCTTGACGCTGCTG	96.9 a.u.
TAGTCAAGTAGCCATCACGTGAGGATAATATATTACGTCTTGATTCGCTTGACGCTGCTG	5600 a.u.
CTATTTGAAGGCCATCACGATGGTATTTTTCAAGAAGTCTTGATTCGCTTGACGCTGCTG	98.8 a.u.
CTAACGAAGGTTTTTCACGTGGACTACAAGCCAAGTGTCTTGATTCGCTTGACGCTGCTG	540 a.u.
GATTCAAGCTTCTTTTGCGTGATGGAATTTAGGATTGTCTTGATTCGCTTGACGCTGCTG	90.4 a.u.
TGCGCAACAACTTTTCACGTGCTTTTATGTCTAGAAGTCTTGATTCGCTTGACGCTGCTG	1260 a.u.
AAAGCGGTAATTTGACAGGTGGGTGCAGATATCTATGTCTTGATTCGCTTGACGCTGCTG	71.6 a.u.
GTAAATGAGGCCCATCACGCTGACTCACTCGGTCCGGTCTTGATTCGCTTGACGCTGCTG	103 a.u.
GACGAAACCTCTTCACGTGTGCAGGACTTGAAAATCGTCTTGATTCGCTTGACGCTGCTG	856 a.u.
TCAAACTGAGATCCGGTCATGACAATACTGTCAACAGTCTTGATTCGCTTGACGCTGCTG	77.6 a.u.
TTAATGAGTAATCCGCACGTTTTTAATCTAGCTAATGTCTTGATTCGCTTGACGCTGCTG	126 a.u.
TCCTGGGCGGCTTAAAACGTGAGGAAAATTGTACTGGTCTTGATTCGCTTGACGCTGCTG	188 a.u.
GTCTTGTCTCATTGTGGAGTGGGTGTCCCCACTTCAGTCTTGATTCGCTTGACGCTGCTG	82.7 a.u.
TGCGCAACAACTTGTCACTCAACTTTATGTCTAGAAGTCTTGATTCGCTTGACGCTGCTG	80.6 a.u.
AAAGCGGTAATTTGCGGAGTGGGTGCAGATATCTATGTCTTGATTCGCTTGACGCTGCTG	73.8 a.u.
CATACCCAACCTTTTCACGTGTTTTAAGATATTTGTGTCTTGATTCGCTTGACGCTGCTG	1220 a.u.
GGAAACTCTGGCGGCCACGTGAATTCAAATTACAACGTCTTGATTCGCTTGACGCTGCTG	1340 a.u.
GTCTTGTCTCATTGACTTGTGGGTGTCCCCACTTCAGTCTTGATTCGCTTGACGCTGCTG	96.8 a.u.
CCCCGTAGGGCCCGACACGTCTAAAATATTAACCTCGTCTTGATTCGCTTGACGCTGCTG	67.6 a.u.
CGTTATTGAAAATCTCACGTGATGGTATCCACTAATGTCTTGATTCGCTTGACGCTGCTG	3310 a.u.
TGCGCAACAACTTGAAGAGTGGGTGTATGTCTAGAAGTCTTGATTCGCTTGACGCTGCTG	79.9 a.u.

Set 3 — target: CCNA1, cyclin fold, Cln2 fusion (human); method: yeast growth competition, sequencing; matrix: yeast; setting: weak parent motif; baseline: not given; reading: higher = stronger binding
Starting sequence: INSM1 docking peptide (human); PKAIRKLHFEDEV
Substitution	normalised enrichment score
I4C	1.53
D11P	0.72
A3K	0.496
D11H	0.393
E12G	0.702
L7P	-0.0946
H8S	0.953
H8V	0.931
A3Y	-0.0488
L7M	0.0884
A3G	-0.079
K6I	0.284
L7R	0.639
D11G	0.523
A3Q	0.187
D11I	0.604
L7C	0.125
F9E	-0.19
E12R	0.235
R5G	-0.482
F9G	0.0637
R5T	0.152
D11T	0.0581
H8F	0.0579
H8C	1.05

Set 4 — method: protein binding microarray; molecule type: double-stranded DNA, one strand shown; matrix: in vitro; concentration: not given; baseline: not given; reading: higher = stronger binding
Target: Histone acetyltransferase KAT6A, both winged helices, GST fusion (KAT6A, Homo sapiens, UniProt Q92794, residues 1-181)
Setting: 8-mer, flanks averaged, mean of 2 arrays, mostly near background
Target sequence (chain): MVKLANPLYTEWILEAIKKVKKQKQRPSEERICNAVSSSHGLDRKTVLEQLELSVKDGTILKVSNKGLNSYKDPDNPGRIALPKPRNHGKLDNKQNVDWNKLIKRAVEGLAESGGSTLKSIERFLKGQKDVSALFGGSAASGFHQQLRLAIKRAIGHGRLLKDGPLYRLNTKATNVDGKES
Sequence	E-score
ATTCTTAC	-0.0114
CCAAAACA	-0.0771
ACAGGCTG	-0.122
ATGACGTA	-0.077
ATGTTTGG	0.0183
GTAGCACA	0.0536
AGAGCAGG	-0.232
CTTCGCTA	-0.137
GCCAAAAC	0.00762
GCTATTAA	-0.0132
GGGCGGAA	0.0364
GGTTGCCA	0.00592
ATAAGTAT	-0.0765
AATCTGCG	0.138
ATCGGGTA	0.109
CCACTTAC	-0.0331
CTTAGTCA	-0.0577
ATGCCATA	-0.162
GTTGGTAA	-0.0388
GTGACACA	0.13
ATCGAATC	0.108
AGCCCTGC	-0.103
CCCACTTA	-0.12

Set 5 — method: RNA Bind-n-Seq; molecule type: RNA; matrix: in vitro; concentration: 1 µM; setting: whole 134-nt RNA, ends assumed; with: 150 mM KCl; baseline: input library; reading: higher = stronger binding
Target: Ras GTPase-activating protein-binding protein 1, RRM domain (G3BP1, Homo sapiens, UniProt Q13283)
Sequence of UniProt Q13283 (whole entry, looked up): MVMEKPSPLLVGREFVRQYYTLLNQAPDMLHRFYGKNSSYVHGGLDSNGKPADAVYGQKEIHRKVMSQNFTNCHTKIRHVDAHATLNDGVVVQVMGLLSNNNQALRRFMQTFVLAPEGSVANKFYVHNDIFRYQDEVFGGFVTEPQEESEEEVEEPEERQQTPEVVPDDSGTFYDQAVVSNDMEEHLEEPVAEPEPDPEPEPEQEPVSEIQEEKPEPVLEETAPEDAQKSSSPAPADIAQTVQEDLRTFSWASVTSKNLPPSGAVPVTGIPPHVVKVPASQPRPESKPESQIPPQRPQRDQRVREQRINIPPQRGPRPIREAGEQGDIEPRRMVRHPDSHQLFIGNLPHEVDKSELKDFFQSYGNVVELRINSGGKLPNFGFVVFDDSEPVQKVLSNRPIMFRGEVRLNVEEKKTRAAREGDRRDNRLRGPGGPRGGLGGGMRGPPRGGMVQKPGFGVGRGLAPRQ
Sequence	log2 enrichment
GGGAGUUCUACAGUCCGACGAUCACCAUGCAGGUGGGCAUCUUUGGGAAGUGGGGCAAGGGGGAGAUAGGGAGGGGGGUAACACUUUGGGAACAGGUGGUCCCAGGUCGUUUCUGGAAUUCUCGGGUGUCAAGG	1.1
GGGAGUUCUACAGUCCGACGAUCCCUGUGCUACACAUCGUAUGUACCGAAUCGGGGUUUUUUUGGGGAAAAAAAGGGGAGGGGAAAGUAUUAUGUUACGCCGUUCGGAUCUGCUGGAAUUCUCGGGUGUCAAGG	0.0818
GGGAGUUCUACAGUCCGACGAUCUCAAGUCCUGUGCUACACAUCGUAUGUACCGAAUCGGGGUUGGUUGGGGUUGGGAAAGUAUUAUGUUACGCCGUUCGGAUCUGCACUUCCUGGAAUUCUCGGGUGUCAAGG	0.127
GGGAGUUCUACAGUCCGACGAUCUUUUCAUACCGAUCUAGAGUUCGUCCUUGCGUGGUUUAUGGUGGUGCCGAUAUUGGUCAGCAGAUUCGAGACUUGGAACGUGGAUGCCAUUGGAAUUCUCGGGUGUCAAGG	0.00471
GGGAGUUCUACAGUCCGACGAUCCUGUGCUACACAUCGUAUGUACCGAAUCGGGGAAAAAAAGGGGAAAGGGGAAAAAAAGGGGAAAGUAUUAUGUUACGCCGUUCGGAUCUGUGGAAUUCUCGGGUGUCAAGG	0.512
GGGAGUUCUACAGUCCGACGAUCUGGGAGGUGGAUUUUGUUGAUUUUUUUAGCUCAUUUCCAGGGGUGGGAAUUUUUUUUUAAUAUGUGUCAUGAAUAAAGUUGUUUUUGAAAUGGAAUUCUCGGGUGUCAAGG	0.963
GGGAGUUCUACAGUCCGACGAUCUGGUAGGUGGAUUUUGUUUAUUUUUUUAGCUCAUUUCCAGGGGUGGGAAUUUUUUUUUAAUAUGUGUCAUGAAUAAAGUUGUUUUUGAAAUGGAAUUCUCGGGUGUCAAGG	2.41
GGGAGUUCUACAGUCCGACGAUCUCAAGUCCUGUGCUACACAUCGUAUGUACCGAAUCGGAAAAAAAGGUGGUUUGGAAAGUAUUAUGUUACGCCGUUCGGAUCUGCACUUCCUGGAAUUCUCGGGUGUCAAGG	-0.196
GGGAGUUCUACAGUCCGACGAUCCACAGACAAUACGCACCCACACAGACACAGAGGGAAGGGGUUGGGAUGGGGACAGGGUGCACAGCAGGGCGGGGUAGGACCCCAGCCCCUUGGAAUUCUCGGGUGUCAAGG	-0.0225
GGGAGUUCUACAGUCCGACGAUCGAGUCCGGUUCGUGUUCGUCCGCGGAGAUCUCUCUCAUCUCGCUCGGCUGCGGGAAAUCGGGCUGAAGCGACUGAGUCCGCGAUGGAGGUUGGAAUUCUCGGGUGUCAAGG	-0.402
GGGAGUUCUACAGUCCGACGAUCUGGCCCUGGUGGUAUGCGGGGAGGAAGAGGUGGCCUCAUGGAUCGUGGUGGUCCCGGUGGAAUGUUCAGAGGUGGCCGUGGUGGAGACAGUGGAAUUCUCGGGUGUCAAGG	0.88
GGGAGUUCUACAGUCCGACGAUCCUGUGCUACACAUCGUAUGUACCGAAUCGGGGCCCCCCGGGGCCCCCCGGGGCCCCCCGGGGAAAGUAUUAUGUUACGCCGUUCGGAUCUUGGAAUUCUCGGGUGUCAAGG	-0.657
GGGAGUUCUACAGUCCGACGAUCGUCCUGUGCUACACAUCGUAUGUACCGAAUCGGGGAAAAAGGGGAAAGGGGUUUGGGGAAAGUAUUAUGUUACGCCGUUCGGAUCUGCACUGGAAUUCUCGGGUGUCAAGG	1.27
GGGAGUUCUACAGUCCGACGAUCCACAGACAACACGCACCCACACAGACACAGAGGGAAGGGGUUGGGAUGGGGACAGGGUGCACAGCAGGGCGGGGUAGGACCCCAGAAACUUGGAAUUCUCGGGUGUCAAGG	-0.209

Some of these lines once more (set 2):
Sequence	fluorescence intensity
TGCGCAACAACTTGTCACTCAACTTTATGTCTAGAAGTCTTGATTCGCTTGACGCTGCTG	80.6 a.u.
TGGCCAAGGTTGTTTTCCGTGACTCGTACAAGTACAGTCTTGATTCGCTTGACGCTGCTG	96.9 a.u.
AAAGCGGTAATTTGCGGAGTGGGTGCAGATATCTATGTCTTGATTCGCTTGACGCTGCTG	73.8 a.u.
GAAGGTGCCTCTTCCCACATGGCCGAGCCCTCGCCGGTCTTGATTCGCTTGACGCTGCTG	54.8 a.u.
GTCTTGTCTCATTGTGGAGTGGGTGTCCCCACTTCAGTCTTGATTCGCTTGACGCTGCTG	82.7 a.u.
GTAAATGAGGCCCATCACGCTGACTCACTCGGTCCGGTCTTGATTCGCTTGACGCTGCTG	103 a.u.
CGTTATTGAAAATCTCACGTGATGGTATCCACTAATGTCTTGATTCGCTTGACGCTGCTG	3310 a.u.
CTAACGAAGGTTTTTCACGTGGACTACAAGCCAAGTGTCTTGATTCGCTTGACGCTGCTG	540 a.u.
